Experimental data collected from several papers.
Protocols differ between the studies behind these lines. ± gives the spread as reported.
Organism: Acinetobacter baumannii

| SMILES | test | system | conditions | how to read | MIC |
| --- | --- | --- | --- | --- | --- |
| O=C(NCCNCCO)c1cn(Cc2cccc(Br)c2)c2cc(Cl)c(OCc3ccc(C(F)(F)F)cc3)cc2c1=O | – | ATCC 19606 | – | ≥80% growth inhibition | < 0.25 µg/mL |
| C/C(=N\NC(=N)N)c1nnn(-c2ccc(S(=O)(=O)NC3CCCC3)cc2)c1C | microbial growth, broth dilution | AB5075 | – | – | 32 µg/mL |
| COc1ccc2ccc3c(c2c1)C=[N+]1C2CCCCC2[N+]2=Cc4c(OC)cccc4[O][Au-]21[O]3.F[P-](F)(F)(F)(F)F (stereo not drawn) | bacterial growth, broth microdilution | carbapenem-resistant clinical isolate | 24 h | – | > 20 µM |
| CCCCCCCCCC(=O)NCCCC[C@H](NC(=O)[C@H](CC(C)C)NC(=O)[C@H](CCCCN)NC(=O)[C@H](CCCCNC(=O)[C@H](CC(C)C)NC(=O)[C@H](CCN)NC(=O)[C@H](CCCCNC(=O)[C@H](Cc1ccccc1)NC(=O)[C@@H](N)CCCN)NC(=O)[C@H](Cc1ccccc1)NC(=O)[C@@H](N)CCCN)NC(=O)[C@H](CC(C)C)NC(=O)[C@H](CCN)NC(=O)[C@H](CCCCNC(=O)[C@H](Cc1ccccc1)NC(=O)[C@@H](N)CCCN)NC(=O)[C@H](Cc1ccccc1)NC(=O)[C@@H](N)CCCN)C(N)=O | broth microdilution | ATCC 19606 | 37 °C | – | 2 µg/mL |
| COc1c(NC(=O)c2ccc(NC(=O)c3ccc(NC(=O)[C@H](CC#N)NC(=O)c4ccc(NC(=O)/C(C)=C/c5ccc(O)cc5)cc4)cc3)c(OC)c2O)ccc(C(=O)O)c1O | microbial growth | DSM30008 | – | – | > 64 µg/mL |
| Cc1ccc(-c2nc3ccc(-c4c[nH]c(N)n4)cc3[nH]2)cc1 | – | ATCC 19606 | compound alone | – | ≥ 200 µM |
| O=C(O)c1ccc(-n2cc(/C=N/Nc3cccc(Cl)c3F)c(-c3ccc4ccccc4c3)n2)cc1 | – | ATCC 19606 | – | – | > 50 µg/mL |
| CC(=O)N[C@H](CCCCN)C(=O)N[C@H](CC(C)C)C(=O)N[C@H](CCCCN)C(=O)N[C@H](CO)C(=O)N[C@H](CC(C)C)C(=O)N[C@H](CC(C)C)C(=O)N[C@H](CCCCN)C(=O)N[C@@H](C(=O)N[C@H](CC(C)C)C(=O)N[C@H](CO)C(=O)N[C@H](CCCCN)C(=O)N[C@H](C)C(=O)N[C@H](CCCCN)C(=O)N[C@H](CCCCN)C(=O)N[C@H](CCCCN)C(=O)N[C@H](CC(C)C)C(=O)N[C@H](CC(C)C)C(=O)N[C@H](CCCCN)C(=O)N[C@@H](C(=O)N[C@H](C)C(=O)N[C@H](CC(C)C)C(=O)N[C@H](CCCCN)C(=O)N[C@H](C)C(=O)N[C@H](CC(C)C)C(=O)N[C@H](CO)C(=O)N[C@H](CCCCN)C(N)=O)[C@H](C)O)[C@H](C)O | – | 884, Mueller-Hinton broth | 24 h, 37 °C | – | 0.7 µM |
| CC[S+]([O-])C1C(CO)OC(OC2C(N)CC(N)C(O)C2OC2OC(CO)C(OC3OC(CN)C(O)C(O)C3N)C2O)C(N)C1O (mixture of isomers) | – | reference strain | – | – | > 128 µg/mL |
| CC1(C)S[C@@H]2[C@H](NC(=O)[C@H](NC(=O)C3=C(O)C(c4ccccc4F)NC3=O)c3ccccc3)C(=O)N2[C@H]1C(=O)O (stereo partly drawn) | microbial growth, broth dilution | ATCC19606 | – | – | 50 µg/mL |
| c1ccc(CSc2nc3ccccc3cc2CNCCC2CCN(C3CCCC3)CC2)cc1 | microbial growth, broth dilution | – | – | – | 32 µg/mL |
| Cc1ccc2ccc3ccc(C)nc3c2n1.Cc1ccc2ccc3ccc(C)nc3c2n1.O.[Cl-].[Cl-].[Cl-].[Yb+3] | – | – | – | – | 31 µg/mL |
| CCn1[c]([Au-][Cl])[n+](CC)c2ccc(C(=O)OC)cc21 | broth dilution | DSM 30007 | 20 h, 37 °C | – | 17.2 µM |
| CC(C)C[C@H](NC(=O)[C@H](CC(N)=O)NC(=O)[C@H](CCCNC(=N)N)NC(=O)[C@@H](CC(C)C)NC(=O)[C@H](Cc1ccc(C(F)(F)F)cc1)NC(=O)[C@H](CC(=O)O)NC(=O)[C@H](CCCCN)NC(=O)[C@@H](CC(C)C)NC(=O)[C@H](CCCNC(=N)N)NC(=O)[C@H](CCC(N)=O)NC(=O)[C@@H](NC(=O)[C@@H](CC(C)C)NC(=O)[C@H](CCCNC(=N)N)NC(=O)[C@H](CCCCN)NC(=O)[C@H](Cc1ccc2ccccc2c1)NC(=O)CN)C(C)C)C(=O)N[C@H](C(N)=O)C(C)C | broth microdilution | B2367-12 | – | – | 3.1 µM |
| C/C(=N\NC(=N)N)c1nnn(-c2ccc(S(=O)(=O)NCCCCC(C)C)cc2)c1C | microbial growth, broth dilution | AB5075 | – | – | > 64 µg/mL |
| CCn1cc[n+](CC)[c]1[Au-][Cl] | broth dilution | DSM 30007 | 20 h, 37 °C | – | 3.8 ± 2.4 µM |
| CC[P+](CC)(CC)[Au-][S][C@@H]1O[C@H](COC(C)=O)[C@@H](OC(C)=O)[C@H](OC(C)=O)[C@H]1NC(=O)C(Cl)(Cl)Cl | – | NCTC 13420 | – | – | 82 µM |
| COc1ccc2ccc3c(c2c1)C=[N+]1C2CCCCC2[N+]2=Cc4cc(C(C)(C)C)cc(C(C)(C)C)c4[O][Au-]21[O]3.F[P-](F)(F)(F)(F)F (stereo not drawn) | bacterial growth, broth microdilution | carbapenem-resistant clinical isolate | 24 h | – | > 20 µM |
| c1ccc(CN2CCOCCOCCN(CCCCCCCCCCN3CCOCCOCCN(CCCCCCCCCCN4CCOCCOCCN(Cc5ccccc5)CCOCCOCC4)CCOCCOCC3)CCOCCOCC2)cc1 | microbial growth | – | – | – | 13 µM |
| NC[C@@H]1O[C@H](O[C@H]2[C@@H](O)[C@H](O[C@@H]3[C@@H](O)[C@H](N)C[C@H](N)[C@H]3O[C@H]3O[C@H](CO)[C@@H](CCO)[C@H](O)[C@H]3N)O[C@@H]2CO)[C@H](N)[C@@H](O)[C@@H]1O | – | reference strain | – | – | 2 to 4 µg/mL |
| COc1ccc2ccc3c(c2c1)C=[N+]1C2CCCCC2[N+]2=Cc4ccc(OCCN5CCCCC5)cc4[O][Au-]21[O]3.F[P-](F)(F)(F)(F)F (stereo not drawn) | bacterial growth, broth microdilution | carbapenem-resistant clinical isolate | 24 h | – | 20 µM |
| Nc1nc(-c2ccc(NC(=O)c3cc(Cl)cc(Cl)c3)cc2)c[nH]1 | – | ATCC 19606 | compound alone | – | 100 µM |
| COc1ccc2ccc3c(c2c1)C=[N+]1C2CCCCC2[N+]2=Cc4cc(C(C)(C)C)ccc4[O][Au-]21[O]3.F[P-](F)(F)(F)(F)F (stereo not drawn) | bacterial growth, broth microdilution | carbapenem-resistant clinical isolate | 24 h | – | > 20 µM |
| NCC1OC(OC2C(N)CC(N)C(OC3OC(CO)C(O)C(N)C3O)C2OCCCCn2cc(CNc3nc(NCc4cn(CCCCOC5C(OC6OC(CN)C(O)CC6N)C(N)CC(N)C5OC5OC(CO)C(O)C(N)C5O)nn4)nc(NCc4cn(CCCCOC5C(OC6OC(CN)C(O)CC6N)C(N)CC(N)C5OC5OC(CO)C(O)C(N)C5O)nn4)n3)nn2)C(N)CC1O (stereo not drawn) | microbial growth, broth dilution | ATCC17978 | – | – | > 128 µg/mL |

A few entries again:
| SMILES | test | system | conditions | how to read | MIC |
| --- | --- | --- | --- | --- | --- |
| Cc1ccc(-c2nc3ccc(-c4c[nH]c(N)n4)cc3[nH]2)cc1 | – | ATCC 19606 | compound alone | – | ≥ 200 µM |
| O=C(O)c1ccc(-n2cc(/C=N/Nc3cccc(Cl)c3F)c(-c3ccc4ccccc4c3)n2)cc1 | – | ATCC 19606 | – | – | > 50 µg/mL |
